Published values of several laboratories.
Parts stem from different laboratories: compare values within a part only. “And” joins repeats or separate records; there may be more than shown.
Chain of UniProt Q04759 (whole entry, looked up): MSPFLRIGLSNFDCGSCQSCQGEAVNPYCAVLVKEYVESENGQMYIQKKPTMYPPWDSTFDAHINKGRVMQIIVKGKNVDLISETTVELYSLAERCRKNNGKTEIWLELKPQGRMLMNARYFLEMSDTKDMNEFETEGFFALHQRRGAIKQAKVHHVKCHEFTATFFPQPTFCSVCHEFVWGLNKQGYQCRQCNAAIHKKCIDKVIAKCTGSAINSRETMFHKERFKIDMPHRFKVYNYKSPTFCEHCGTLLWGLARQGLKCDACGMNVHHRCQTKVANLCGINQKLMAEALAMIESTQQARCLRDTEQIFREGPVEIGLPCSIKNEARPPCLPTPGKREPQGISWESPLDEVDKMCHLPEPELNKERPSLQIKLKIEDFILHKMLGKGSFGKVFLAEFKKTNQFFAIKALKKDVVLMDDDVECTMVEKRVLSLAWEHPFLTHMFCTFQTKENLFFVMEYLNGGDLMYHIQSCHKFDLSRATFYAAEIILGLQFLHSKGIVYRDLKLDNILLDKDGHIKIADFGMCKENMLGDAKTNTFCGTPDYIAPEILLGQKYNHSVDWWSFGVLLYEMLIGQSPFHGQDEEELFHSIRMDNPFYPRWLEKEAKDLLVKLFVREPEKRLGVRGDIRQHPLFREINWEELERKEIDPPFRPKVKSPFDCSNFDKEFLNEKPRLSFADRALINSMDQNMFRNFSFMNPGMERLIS
Chain of UniProt P28482 (whole entry, looked up): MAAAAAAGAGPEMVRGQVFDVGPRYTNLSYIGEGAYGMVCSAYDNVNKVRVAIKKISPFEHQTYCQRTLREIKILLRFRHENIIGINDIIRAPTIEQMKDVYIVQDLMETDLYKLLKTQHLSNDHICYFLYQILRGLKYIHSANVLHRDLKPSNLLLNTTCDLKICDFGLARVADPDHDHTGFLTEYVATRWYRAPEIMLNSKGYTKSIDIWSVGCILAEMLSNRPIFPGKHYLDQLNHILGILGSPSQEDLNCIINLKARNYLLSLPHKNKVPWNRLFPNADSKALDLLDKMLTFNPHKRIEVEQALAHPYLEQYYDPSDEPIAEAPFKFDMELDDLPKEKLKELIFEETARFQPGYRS
Chain of UniProt O14920 (whole entry, looked up): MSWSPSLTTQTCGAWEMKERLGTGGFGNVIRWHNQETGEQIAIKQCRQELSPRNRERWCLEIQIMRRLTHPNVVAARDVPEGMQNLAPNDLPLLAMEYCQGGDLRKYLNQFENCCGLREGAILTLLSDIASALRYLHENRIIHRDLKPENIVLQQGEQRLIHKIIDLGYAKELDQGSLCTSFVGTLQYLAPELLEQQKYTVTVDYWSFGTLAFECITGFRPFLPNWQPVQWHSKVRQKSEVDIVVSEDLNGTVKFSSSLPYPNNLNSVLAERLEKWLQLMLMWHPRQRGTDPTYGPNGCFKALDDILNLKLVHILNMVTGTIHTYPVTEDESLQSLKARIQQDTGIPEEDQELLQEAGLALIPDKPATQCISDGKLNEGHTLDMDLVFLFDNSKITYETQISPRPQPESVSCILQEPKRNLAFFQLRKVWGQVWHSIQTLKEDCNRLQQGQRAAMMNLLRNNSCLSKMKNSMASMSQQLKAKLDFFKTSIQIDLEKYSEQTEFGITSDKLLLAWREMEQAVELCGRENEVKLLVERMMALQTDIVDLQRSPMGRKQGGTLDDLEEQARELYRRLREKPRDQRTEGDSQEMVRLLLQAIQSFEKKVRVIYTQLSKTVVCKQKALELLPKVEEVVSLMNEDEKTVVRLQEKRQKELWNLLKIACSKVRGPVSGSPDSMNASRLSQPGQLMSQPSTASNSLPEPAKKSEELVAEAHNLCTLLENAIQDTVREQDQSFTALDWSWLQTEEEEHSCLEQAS
Chain of UniProt O60331 (whole entry, looked up): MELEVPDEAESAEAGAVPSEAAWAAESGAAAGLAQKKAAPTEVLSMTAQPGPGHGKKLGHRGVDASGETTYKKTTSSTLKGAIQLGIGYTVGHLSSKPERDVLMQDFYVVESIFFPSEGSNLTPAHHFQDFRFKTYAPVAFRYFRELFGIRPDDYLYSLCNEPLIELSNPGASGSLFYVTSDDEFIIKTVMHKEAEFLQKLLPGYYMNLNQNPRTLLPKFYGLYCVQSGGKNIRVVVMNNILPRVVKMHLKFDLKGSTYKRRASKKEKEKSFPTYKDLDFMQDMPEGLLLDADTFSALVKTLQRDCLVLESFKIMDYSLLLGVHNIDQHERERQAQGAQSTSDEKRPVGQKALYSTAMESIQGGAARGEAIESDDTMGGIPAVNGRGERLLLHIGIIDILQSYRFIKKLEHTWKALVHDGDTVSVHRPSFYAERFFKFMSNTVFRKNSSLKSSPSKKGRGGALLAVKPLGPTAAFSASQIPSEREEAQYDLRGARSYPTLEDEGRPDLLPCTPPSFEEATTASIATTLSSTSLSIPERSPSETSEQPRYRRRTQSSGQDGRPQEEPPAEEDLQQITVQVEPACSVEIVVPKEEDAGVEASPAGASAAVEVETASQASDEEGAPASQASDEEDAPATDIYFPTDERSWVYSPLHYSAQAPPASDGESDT
Chain of UniProt Q07002 (whole entry, looked up): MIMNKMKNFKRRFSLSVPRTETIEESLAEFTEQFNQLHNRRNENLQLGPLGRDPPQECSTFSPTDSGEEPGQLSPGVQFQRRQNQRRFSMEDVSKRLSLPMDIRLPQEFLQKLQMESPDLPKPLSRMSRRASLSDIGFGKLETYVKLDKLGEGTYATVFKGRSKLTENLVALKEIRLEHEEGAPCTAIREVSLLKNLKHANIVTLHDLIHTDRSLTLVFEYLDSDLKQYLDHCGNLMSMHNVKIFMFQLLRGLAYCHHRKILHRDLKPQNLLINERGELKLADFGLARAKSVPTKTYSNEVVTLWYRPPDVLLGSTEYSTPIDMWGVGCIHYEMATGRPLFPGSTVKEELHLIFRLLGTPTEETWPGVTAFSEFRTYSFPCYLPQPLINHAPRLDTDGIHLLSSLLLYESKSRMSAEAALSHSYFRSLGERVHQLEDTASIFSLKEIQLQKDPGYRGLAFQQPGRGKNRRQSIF
Chain of UniProt Q9BQI3 (whole entry, looked up): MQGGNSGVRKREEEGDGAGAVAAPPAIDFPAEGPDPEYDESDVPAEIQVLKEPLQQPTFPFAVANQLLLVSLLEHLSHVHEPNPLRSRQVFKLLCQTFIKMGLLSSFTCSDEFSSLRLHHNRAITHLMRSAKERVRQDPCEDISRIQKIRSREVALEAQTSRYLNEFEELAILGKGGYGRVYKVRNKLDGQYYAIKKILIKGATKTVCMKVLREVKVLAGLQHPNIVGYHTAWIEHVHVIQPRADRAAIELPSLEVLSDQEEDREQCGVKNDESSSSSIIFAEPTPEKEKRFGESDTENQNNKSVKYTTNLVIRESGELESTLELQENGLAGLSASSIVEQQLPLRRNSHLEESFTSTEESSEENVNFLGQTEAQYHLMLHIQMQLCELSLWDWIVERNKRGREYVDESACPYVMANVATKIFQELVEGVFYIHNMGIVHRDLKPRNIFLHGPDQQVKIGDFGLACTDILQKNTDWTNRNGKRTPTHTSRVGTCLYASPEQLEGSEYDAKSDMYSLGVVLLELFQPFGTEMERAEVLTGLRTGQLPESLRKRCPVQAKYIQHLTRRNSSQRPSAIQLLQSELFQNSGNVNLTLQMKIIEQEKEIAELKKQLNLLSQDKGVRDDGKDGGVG
Chain of UniProt Q12852 (whole entry, looked up): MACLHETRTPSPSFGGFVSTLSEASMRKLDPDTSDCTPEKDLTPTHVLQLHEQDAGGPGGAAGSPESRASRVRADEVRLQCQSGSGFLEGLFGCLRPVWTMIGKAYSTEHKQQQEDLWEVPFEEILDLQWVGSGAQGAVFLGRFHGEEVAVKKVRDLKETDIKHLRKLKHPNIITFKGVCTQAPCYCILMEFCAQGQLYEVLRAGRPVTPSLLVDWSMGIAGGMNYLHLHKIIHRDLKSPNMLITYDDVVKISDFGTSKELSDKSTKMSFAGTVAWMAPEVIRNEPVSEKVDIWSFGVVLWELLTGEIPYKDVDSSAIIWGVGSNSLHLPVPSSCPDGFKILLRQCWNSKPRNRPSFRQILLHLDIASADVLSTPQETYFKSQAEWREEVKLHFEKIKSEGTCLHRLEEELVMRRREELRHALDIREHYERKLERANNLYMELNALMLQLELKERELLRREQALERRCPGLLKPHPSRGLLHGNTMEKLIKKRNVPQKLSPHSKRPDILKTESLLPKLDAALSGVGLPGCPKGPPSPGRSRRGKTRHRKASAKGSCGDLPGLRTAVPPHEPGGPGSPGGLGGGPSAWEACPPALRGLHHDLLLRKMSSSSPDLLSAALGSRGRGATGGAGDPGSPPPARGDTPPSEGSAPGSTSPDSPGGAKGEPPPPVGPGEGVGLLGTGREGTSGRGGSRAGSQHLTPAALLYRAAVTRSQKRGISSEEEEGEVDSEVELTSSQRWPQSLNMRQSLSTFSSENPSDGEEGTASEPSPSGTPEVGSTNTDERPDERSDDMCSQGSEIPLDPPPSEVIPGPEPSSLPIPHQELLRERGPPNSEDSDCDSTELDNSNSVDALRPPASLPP

Series 1 — method: phase 2a clinical trial
Compound: CC(C)n1cnc(-c2ccc(F)cc2)c1-c1ncc(C(=O)Nc2ccc(N3CCN(C)CC3)cc2)[nH]1
Species: patients with idiopathic pulmonary fibrosis
refers to: left ventricular dysfunction; dose not given, Grade 5, all drug arms — “patients with treatment-emergent adverse events”: 0%.
It gave 0% for “patients with treatment-emergent adverse events” (refers to: C-reactive protein increased; 30 mg once daily, Grade 3).
The “patients with treatment-emergent adverse events” was 0% (refers to: interstitial lung disease; 30 mg once daily, Grade 5).
The “patients with treatment-emergent adverse events” was 0% (refers to: protein urine present; 60 mg once daily, Grade 1).
For refers to: benign prostatic hyperplasia; 30 mg once daily, Grade 2, maximum intensity: “patients with treatment-emergent adverse events” read 0%.
The “patients with treatment-emergent adverse events” was 0% (refers to: hepatic function abnormal; 60 mg once daily, Grade 2).
It gave 0% for “patients with treatment-emergent adverse events” (refers to: drug-induced liver injury; 60 mg once daily, Grade 5).

Series 2 — concentration: 1 µM
SMILES: Cc1nc(Cc2cccc(C(F)(F)F)c2)sc1-c1ccc(C(N)=O)nc1
The remaining binding was 94% (PRKCQ (Homo sapiens, UniProt Q04759); cell-free assay, competition with immobilised ligand).
The remaining binding was 100% (eIF-2-alpha kinase GCN2, C-terminal kinase domain (EIF2AK4, Homo sapiens, UniProt Q9P2K8, S808G); cell-free assay, competition with immobilised ligand).
For KIT (Homo sapiens, UniProt P10721, V559D); cell-free assay, competition with immobilised ligand: remaining binding read 100%.
CDC42BPG (Homo sapiens, UniProt Q6DT37); competition binding — remaining binding: 100%.
For CDK18 (Homo sapiens, UniProt Q07002); cell-free assay, competition with immobilised ligand: remaining binding read 100%.
The remaining binding was 76% (STK32A (Homo sapiens, UniProt Q8WU08); binding, competition with immobilised ligand).
The remaining binding was 88% (TRPM6 (Homo sapiens, UniProt Q9BX84); cell-free assay, competition with immobilised ligand).
CHEK2 (Homo sapiens, UniProt O96017); cell-free assay, competition with immobilised ligand — remaining binding: 100%.
MAPK8 (Homo sapiens, UniProt P45983); cell-free assay, competition with immobilised ligand — remaining binding: 90%.
For CSNK1G3 (Homo sapiens, UniProt Q9Y6M4); cell-free assay, competition with immobilised ligand: remaining binding read 93%.
For NTRK3 (Homo sapiens, UniProt Q16288); cell-free assay, competition with immobilised ligand: remaining binding read 69%.
For PIP5K1C (Homo sapiens, UniProt O60331); cell-free assay, competition with immobilised ligand: remaining binding read 84%.
IKBKB (Homo sapiens, UniProt O14920); cell-free assay, competition with immobilised ligand — remaining binding: 72%.
It gave 100% for remaining binding (HIPK4 (Homo sapiens, UniProt Q8NE63); cell-free assay, competition with immobilised ligand).
It gave 100% for remaining binding (MAP3K12 (Homo sapiens, UniProt Q12852); cell-free assay, competition with immobilised ligand).
DCLK1 (Homo sapiens, UniProt O15075); cell-free assay, competition with immobilised ligand — remaining binding: 81%.
EIF2AK1 (Homo sapiens, UniProt Q9BQI3); cell-free assay, competition with immobilised ligand — remaining binding: 100%.
The remaining binding was 69% (STK32B (Homo sapiens, UniProt Q9NY57); cell-free assay, competition with immobilised ligand).
For NUAK1 (Homo sapiens, UniProt O60285); cell-free assay, competition with immobilised ligand: remaining binding read 86%.
The remaining binding was 100% (CDKL5 (Homo sapiens, UniProt O76039); binding, competition with immobilised ligand).
ULK2 (Homo sapiens, UniProt Q8IYT8); cell-free assay, competition with immobilised ligand — remaining binding: 100%.
The remaining binding was 95% (Insulin receptor (INSR, Homo sapiens, UniProt P06213); cell-free assay, competition with immobilised ligand).
The remaining binding was 94% (CAMK1D (Homo sapiens, UniProt Q8IU85); cell-free assay, competition with immobilised ligand).
For MAPK1 (Homo sapiens, UniProt P28482); cell-free assay, competition with immobilised ligand: remaining binding read 95%.

Series 3 — mode: agonist
Target: Beta-1 adrenergic receptor (ADRB1, Homo sapiens, UniProt P08588)
Chain of UniProt P08588 (whole entry, looked up): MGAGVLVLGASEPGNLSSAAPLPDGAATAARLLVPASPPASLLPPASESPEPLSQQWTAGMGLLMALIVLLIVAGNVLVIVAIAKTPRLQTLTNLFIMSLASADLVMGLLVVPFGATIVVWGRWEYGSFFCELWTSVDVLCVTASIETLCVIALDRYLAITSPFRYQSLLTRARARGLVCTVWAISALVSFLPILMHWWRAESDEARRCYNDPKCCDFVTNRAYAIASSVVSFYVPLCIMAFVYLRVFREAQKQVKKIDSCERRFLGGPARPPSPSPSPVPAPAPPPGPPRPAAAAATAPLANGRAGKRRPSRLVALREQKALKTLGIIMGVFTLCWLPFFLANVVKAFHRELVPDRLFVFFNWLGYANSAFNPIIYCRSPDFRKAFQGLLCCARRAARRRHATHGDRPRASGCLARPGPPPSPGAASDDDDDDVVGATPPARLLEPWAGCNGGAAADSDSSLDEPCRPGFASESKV
With Nn1c(SCc2cc(=O)oc3cc(O)ccc23)nnc1-c1ccccc1Br the EC50 was at least 100 µM.
N#Cc1cc2c(nc1N1CC(n3c(C4CC4)nc4ccccc43)C1)CCOC2 has an EC50 of at least 100 µM.
The EC50 of Cc1cc(-c2cc(-c3ccc(F)cc3)nc3c(C)noc23)ccn1 is reported as at least 100 µM.
CN1CCN(Cc2cccc(OCC(O)CN3CCOCC3)c2)CC1(C)C (stereo not shown) gave an EC50 of at least 100 µM.
The EC50 of Cc1cc(=O)oc2cc(NC(=O)CCCCCCC(=O)NO)ccc12 is reported as at least 100 µM.

Series 4 — organism: Sarcocystis neurona; read-out: parasite growth; concentration: 10 µM; time: 96 h; setting: first screen; relative to: untreated
Under “log2 fold change”, Cc1cccc(Nc2ccccc2C(=O)O)c1C is recorded as 0.0556.
Under “log2 fold change”, C[C@H]1COc2c(N3CCN(C)CC3)c(F)cc3c(=O)c(C(=O)O)cn1c23 is recorded as -0.32.
Cc1ccc(-c2cc(C(F)(F)F)nn2-c2ccc(S(N)(=O)=O)cc2)cc1 — result for “log2 fold change”: 0.07.
For CO[C@@H]1[C@@H](O[C@@H]2O[C@H](C)[C@@H](O[C@H]3C[C@@](C)(O)[C@@H](OC(=O)CC(C)C)[C@H](C)O3)[C@H](N(C)C)[C@H]2O)[C@@H](CC=O)C[C@@H](C)[C@@H](O)/C=C/C=C/C[C@@H](C)OC(=O)C[C@H]1OC(C)=O, “log2 fold change” read -1.33.
CCN1CCC[C@H]1CNC(=O)c1cc(S(N)(=O)=O)ccc1OC: “log2 fold change” 0.22.
For CC(=O)[C@H]1CC[C@H]2[C@@H]3C[C@H](C)C4=CC(=O)CC[C@]4(C)[C@H]3[C@@H](O)C[C@]12C, “log2 fold change” read 0.29.

Series 5 — cell line: mouse MPNST tumor cells; method: high-content nuclear imaging; refers to: cell number; concentration: 10 µM; time: 12 h; setting: mean of 2 replicates; relative to: plate mean; direction: higher = more cells
C#CC1(O)CCC2C3CCc4cc(OC)ccc4C3CCC21C (stereo not shown) gave a nuclei count of 0.279 z-score.
C[C@H](Oc1cc(-c2cnn(C3CCNCC3)c2)cnc1N)c1c(Cl)ccc(F)c1Cl has a nuclei count of -6.37 z-score.
CC(=O)N(O)CCCCCNC(=O)CCC(=O)N(O)CCCCCNC(=O)CCC(=O)N(O)CCCCCN gave a nuclei count of -0.595 z-score.
For C[C@@H](NCCCc1cccc(C(F)(F)F)c1)c1cccc2ccccc12, the nuclei count was -5.79 z-score and -5.93 z-score.
With CC(C)(C)NC[C@H](O)COc1cccc2c1CCCC2=O the nuclei count was 2.81 z-score.
The nuclei count of CCC1NC(=O)c2cc(S(N)(=O)=O)c(Cl)cc2N1 (stereo not shown) is reported as 1.01 z-score.

Series 6 — species: human; matrix: microsomes or S9; concentration: 2 µM; time: 0.5 h
CN(C)C(CN1C(O)=c2ccccc2=NC12C(=O)Nc1ccccc12)c1ccccc1 (stereo not shown) gave a remaining compound of 4.54%.
Cn1cc(C2(C)CN(Cc3nc(-c4cccs4)n[nH]3)CCO2)cn1 (stereo not shown) gave a remaining compound of 83.3%.
Oc1ccc(-c2nccn2Cc2csc(-c3ncccn3)n2)cc1 gave a remaining compound of 92.3%.
For COCc1nc2cc(-c3ccccc3CO)ccc2o1, the remaining compound was 23.7%.

A few entries again (series 2):
The remaining binding was 100% (eIF-2-alpha kinase GCN2, C-terminal kinase domain (EIF2AK4, Homo sapiens, UniProt Q9P2K8, S808G); cell-free assay, competition with immobilised ligand).
For KIT (Homo sapiens, UniProt P10721, V559D); cell-free assay, competition with immobilised ligand: remaining binding read 100%.
CDC42BPG (Homo sapiens, UniProt Q6DT37); competition binding — remaining binding: 100%.
For CDK18 (Homo sapiens, UniProt Q07002); cell-free assay, competition with immobilised ligand: remaining binding read 100%.
